Measured values collected from several papers.
Protocols differ between the studies behind these lines. ± marks the error that the study gave.
Sequence of UniProt P20309 (whole entry, looked up): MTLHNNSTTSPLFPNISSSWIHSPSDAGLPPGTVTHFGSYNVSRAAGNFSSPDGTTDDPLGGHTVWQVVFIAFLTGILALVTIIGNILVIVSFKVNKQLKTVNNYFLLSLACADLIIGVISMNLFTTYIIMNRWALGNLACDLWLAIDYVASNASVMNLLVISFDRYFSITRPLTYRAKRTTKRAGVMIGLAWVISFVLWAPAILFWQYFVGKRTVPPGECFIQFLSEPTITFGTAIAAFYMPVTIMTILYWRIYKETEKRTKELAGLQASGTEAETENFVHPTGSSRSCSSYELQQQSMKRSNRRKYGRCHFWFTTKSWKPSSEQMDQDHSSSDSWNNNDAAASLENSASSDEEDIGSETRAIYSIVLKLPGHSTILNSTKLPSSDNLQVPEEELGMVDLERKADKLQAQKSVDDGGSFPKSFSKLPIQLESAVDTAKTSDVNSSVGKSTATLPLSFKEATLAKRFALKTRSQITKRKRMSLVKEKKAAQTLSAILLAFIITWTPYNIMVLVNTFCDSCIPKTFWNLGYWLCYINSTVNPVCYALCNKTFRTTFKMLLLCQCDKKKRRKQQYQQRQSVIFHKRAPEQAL
Sequence of UniProt P11229 (whole entry, looked up): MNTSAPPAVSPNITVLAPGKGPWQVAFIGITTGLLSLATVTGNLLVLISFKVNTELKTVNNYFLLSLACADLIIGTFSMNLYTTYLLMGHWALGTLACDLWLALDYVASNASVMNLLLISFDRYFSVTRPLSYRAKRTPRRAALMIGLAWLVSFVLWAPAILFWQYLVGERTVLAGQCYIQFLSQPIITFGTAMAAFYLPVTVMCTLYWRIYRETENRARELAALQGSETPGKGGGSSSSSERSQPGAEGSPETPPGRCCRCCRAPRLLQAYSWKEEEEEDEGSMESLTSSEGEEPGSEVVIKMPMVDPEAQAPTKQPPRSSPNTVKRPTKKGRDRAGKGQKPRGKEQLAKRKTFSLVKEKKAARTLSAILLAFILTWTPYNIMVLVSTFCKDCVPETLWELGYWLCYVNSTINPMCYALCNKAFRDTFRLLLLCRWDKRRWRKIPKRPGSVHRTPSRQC

Compound	tested on	assay	test system	setting	how to read	measurement	value
Nc1nc2c(ncn2COCCOC(=O)[C@@H](N)CO)c(=O)[nH]1	human alphaherpesvirus 2	viral cytopathic effect, CPE inhibition	–	–	–	EC50	38.4 µM
COC(=O)C(C)NC(=O)C1OC(OC2C(OC3CCC4(C)C(CCC5(C)C4C(=O)C=C4C6CC(C)(C(=O)O)CCC6(C)CCC45C)C3(C)C)OC(C(=O)NC(C)C(=O)OC)C(O)C2O)C(O)C(O)C1O (stereo not shown)	Epstein-Barr virus	viral genome copies, quantitative PCR	superinfected Raji cells	24 h	–	EC50	30 ± 5 µM
O=C(O)/C=C/c1ccc(NC(=O)C2(NC(=O)c3ccc4c(C5CCCCC5)c5n(c4c3)CC(=O)Nc3ccccc3-5)CCCC2)cc1	hepatitis C virus	replicon replication	Huh-7, genotype 1b Con1	–	–	EC50	0.008 µM
C[C@@H](N)C1CCN(S(=O)(=O)c2cccc3cnccc23)CC1	ROCK	MLC2 phosphorylation, inhibitor	HUVEC	50 µM, 1 h then washout, with: LPA	–	duration of action	≤ 1 h
CCCCCCOc1ccc(C(=O)OCC[N+]2(C)CC=CCC2)cc1 (stereo not shown)	Muscarinic acetylcholine receptor M3 (CHRM3, Homo sapiens, UniProt P20309)	inositol phosphate accumulation, antagonist, Schild analysis	CHO	with: carbachol	–	Kb	79.4 nM
NS(=O)(=O)c1ccc(NC(=O)NN[C@@H]2O[C@H](CO)[C@@H](O)[C@H](O)[C@@H]2O)cc1	rabbit erythrocytes	–	–	16 µg/mL, 3 h	reference: complete lysis	hemolysis	0%
CNC(=O)c1c(F)cccc1Nc1nc(Nc2cc3c(cc2OC)CCN3C(=O)CN(C)C)nc2[nH]ccc12	Leishmania major	parasite growth	–	promastigote	–	EC50	> 25.1 µM
CNC(=O)c1ccc(-c2ccc(Cl)cc2)c(COc2ccc(-c3nc4cc(C(=O)O)ccc4n3C3CCCCC3)cc2)c1	hepatitis C virus	replicon replication	Huh-7, genotype 1b Con1	–	–	EC50	0.4 µM
C=C(C)[C@@H]1CC[C@]2(C(=O)NC(CO)Cc3ccccc3)CC[C@]3(C)[C@H](CC[C@@H]4[C@@]5(C)CCCNC(C)(C)[C@@H]5CC[C@]43C)[C@@H]12 (stereo partly shown)	human papillomavirus 11	viral replication, inhibitor, luciferase	C-33-A	–	–	EC50	> 0.24 µM
COc1ccc2c(c1)C=C(C(=O)N1CCOCC1)Cn1c-2c(C2CCCCC2)c2ccc(C(=O)NS(=O)(=O)N(C)C)cc21	hepatitis C virus	replicon replication	Huh-7 replicon cells, genotype 1b Con1	–	–	EC50	< 0.1 µM
COC(=O)CCC(NC(=O)C1OC(OC2C(OC3CCC4(C)C(CCC5(C)C4C(=O)C=C4C6CC(C)(C(=O)NC(CCC(=O)OC)C(=O)OC)CCC6(C)CCC45C)C3(C)C)OC(C(=O)NC(CCC(=O)OC)C(=O)OC)C(O)C2O)C(O)C(O)C1O)C(=O)OC (stereo not shown)	Epstein-Barr virus	viral genome copies, quantitative PCR	superinfected Raji cells	24 h	–	EC50	> 1000 µM
CC1(CCCCCCCCCCCCCCOCCCOP(=O)(O)CO[C@H](CO)Cn2ccc(N)nc2=O)COC1	human alphaherpesvirus 3	cytopathic effect	HFF, Ellen	–	–	EC50	0.03 ± 0.03 µM
CS(C)=O.CS(C)=O.[Cl][Cu][Cl].c1ccc(-c2nnc(-c3ccc4c(c3)OCO4)[nH]2)nc1	T24	FITC-LEHD-FMK flow cytometry	–	5.3 µM, 24 h	–	activated caspase-9 cells	44.6%
CC1(CCCCCCCCCCCCOCCCOP(=O)(O)CO[C@H](CO)Cn2ccc(N)nc2=O)COC1	human alphaherpesvirus 3	cytopathic effect	HFF, Ellen	–	–	EC50	0.69 ± 0.54 µM
CCCCOc1ccc(C(=O)OCC[N+]2(C)CC=CCC2)cc1 (stereo not shown)	Muscarinic acetylcholine receptor M1 (CHRM1, Homo sapiens, UniProt P11229)	inositol phosphate accumulation, antagonist, Schild analysis	CHO	with: carbachol	–	Kb	38.9 nM
C[C@H](N)C(=O)OCCOCn1cnc2c(=O)[nH]c(N)nc21	human alphaherpesvirus 2	viral cytopathic effect, CPE inhibition	–	–	–	EC50	17.7 µM
CC(C)CC(NC(=O)C1OC(OC2C(OC3CCC4(C)C(CCC5(C)C4C(=O)C=C4C6CC(C)(C(=O)NC(CC(C)C)C(=O)O)CCC6(C)CCC45C)C3(C)C)OC(C(=O)NC(CC(C)C)C(=O)O)C(O)C2O)C(O)C(O)C1O)C(=O)O (stereo not shown)	Epstein-Barr virus	viral genome copies, quantitative PCR	superinfected Raji cells	24 h	–	EC50	~25 µM

Compound	tested on	assay	test system	setting	how to read	measurement	value
c1ccc(-c2nc(-c3ccc4ccccc4c3)c[nH]2)cc1	Schistosoma mansoni	worm killing	female worms	–	no effect	EC50	> 100 µM
Nc1ccn(C[C@@H](CO)OCP(=O)(O)OCCCS(=O)(=O)CCCCCCCCCCC2CCC2)c(=O)n1	human alphaherpesvirus 3	cytopathic effect	HFF, Ellen	–	–	EC50	0.02 ± 0.01 µM
CCCC[C@H](NC(=O)COCCOCCNC(=O)CN1CCN(CC(=O)O)CCN(CC(=O)O)CC1)C(=O)N[C@H]1CC(=O)NCCCC[C@@H](C(N)=O)NC(=O)[C@H](Cc2c[nH]c3ccccc23)NC(=O)[C@H](CCCNC(=N)N)NC(=O)[C@@H](Cc2ccccc2)NC(=O)[C@H](Cc2c[nH]cn2)NC1=O [copper-64 labelled]	–	–	C57 mice, heart	intravenous, 0.37 MBq, 4 h	–	tissue uptake	0.18 ± 0.06 %ID/g
Nc1ccn(C[C@@H](CO)OCP(=O)(O)OCCCS(=O)(=O)CCCCCCCCCCCCCC2CCC2)c(=O)n1	human alphaherpesvirus 2	cytopathic effect	HFF, G	–	–	EC50	0.14 ± 0.23 µM
C=C(C)[C@@H]1CC[C@]2(CO)CC[C@]3(C)[C@H](CC[C@@H]4[C@@]5(C)CCCNC(C)(C)[C@@H]5CC[C@]43C)[C@@H]12	human papillomavirus 11	viral replication, inhibitor, luciferase	C-33-A	–	–	EC50	> 6 µM
Nc1ccn(C[C@@H](CO)OCP(=O)(O)OCCCS(=O)(=O)CCCCCCCCCCCCC2CCC2)c(=O)n1	human alphaherpesvirus 2	cytopathic effect	HFF, G	–	–	EC50	0.01 ± 0.01 µM
COC(=O)C(CCSC)NC(=O)C1OC(OC2C(OC3CCC4(C)C(CCC5(C)C4C(=O)C=C4C6CC(C)(C(=O)O)CCC6(C)CCC45C)C3(C)C)OC(C(=O)NC(CCSC)C(=O)OC)C(O)C2O)C(O)C(O)C1O (stereo not shown)	Epstein-Barr virus	viral genome copies, quantitative PCR	superinfected Raji cells	24 h	–	EC50	> 1000 µM
[64Cu+2].c1ccc(CNCc2ccc(CN3CCCN4CCNCCCN(CC4)CC3)cc2)nc1	CXCR4	–	NOD/SCID mouse, U87 and U87-stb-CXCR4 xenografts, lungs	iv, 60 min, ex vivo	–	tissue uptake	10.6 ± 1.72 %ID/g
CC[C@H]1[C@@H](O)[C@@H]2[C@H](CC[C@]3(C)[C@@H]([C@H](C)CCOS(=O)(=O)[O-])CC[C@@H]23)[C@@]2(C)CC[C@@H](O)C[C@@H]12.[Na+]	–	–	ob/ob NASH mice, plasma	oral, 3 mg/kg once daily, baseline before treatment, 8 wk study	–	plasma triglycerides	0.8 ± 0.1 mmol/L
C=C(C)[C@@H]1CC[C@]2(C(N)=O)CC[C@]3(C)[C@H](CC[C@@H]4[C@@]5(C)CCCNC(C)(C)[C@@H]5CC[C@]43C)[C@@H]12	human papillomavirus 11	viral replication, inhibitor, luciferase	C-33-A	–	–	EC50	> 1.2 µM
COC(=O)C(CCC(=O)O)NC(=O)C1OC(OC2C(OC3CCC4(C)C(CCC5(C)C4C(=O)C=C4C6CC(C)(C(=O)O)CCC6(C)CCC45C)C3(C)C)OC(C(=O)NC(CCC(=O)O)C(=O)OC)C(O)C2O)C(O)C(O)C1O (stereo not shown)	Epstein-Barr virus	EA/VCA antigen expression, indirect immunofluorescence	superinfected Raji cells	24 h	–	EC50	175 µM
O=Cc1c(O)ccc2ccccc12	HUVEC	RNA sequencing, measured: C9orf64	–	75 µM, 24 h	reference: DMSO	log2 fold change	2.5
C=C(C)[C@@H]1CCC=C2CC[C@]3(C)[C@H](CC[C@@H]4[C@@]5(C)CCCNC(C)(C)[C@@H]5CC[C@]43C)[C@H]21	human papillomavirus 11	viral replication, inhibitor, luciferase	C-33-A	–	–	EC50	> 1.2 µM
CCOC(=O)[C@@H](C)NP(=O)(CO[C@H](CF)Cn1cnc(N)nc1=O)N[C@H](C)C(=O)OCC	varicella-zoster virus	plaque formation	HEL, Oka, TK+	–	–	EC50	> 100 µM
[64Cu+2].c1cnc(CNCc2ccc(CN3CCCN4CCNCCCN(CC4)CC3)cc2)nc1	CXCR4	–	NOD/SCID mouse, U87 and U87-stb-CXCR4 xenografts, stomach	iv, 450 min, ex vivo	–	tissue uptake	2.54 ± 0.32 %ID/g
CC1(CCCCCCCCCCOCCCOP(=O)(O)CO[C@H](CO)Cn2ccc(N)nc2=O)COC1	human alphaherpesvirus 3	cytopathic effect	HFF, Ellen	–	–	EC50	1.01 ± 0.22 µM
N=C(N)NCCC[C@@H]1NC(=O)[C@H](CCCCNC(=O)CNC(=O)CNC(=O)CNC(=O)CC[C@H](NC(=O)CNC(=O)CNC(=O)CNC(=O)CC[C@H](NC(=O)CN2CCN(CC(=O)O)CCN(CC(=O)O)CCN(CC(=O)O)CC2)C(=O)NCC(=O)NCC(=O)NCC(=O)N[C@@H](CCC(=O)NCC(=O)NCC(=O)NCC(=O)NCCCC[C@@H]2NC(=O)[C@@H](Cc3ccccc3)NC(=O)[C@H](CC(=O)O)NC(=O)CNC(=O)[C@H](CCCNC(=N)N)NC2=O)C(=O)NCC(=O)NCC(=O)NCC(=O)NCCCC[C@@H]2NC(=O)[C@@H](Cc3ccccc3)NC(=O)[C@H](CC(=O)O)NC(=O)CNC(=O)[C@H](CCCNC(=N)N)NC2=O)C(=O)NCC(=O)NCC(=O)NCC(=O)NCCCC[C@@H]2NC(=O)[C@@H](Cc3ccccc3)NC(=O)[C@H](CC(=O)O)NC(=O)CNC(=O)[C@H](CCCNC(=N)N)NC2=O)NC(=O)[C@@H](Cc2ccccc2)NC(=O)[C@H](CC(=O)O)NC(=O)CNC1=O [indium-111 labelled]	–	–	female athymic nu/nu mice, kidney	intravenous, 4 h	–	tissue uptake	6.21 ± 0.65 %ID/g

Excerpt of the above:
Compound	tested on	assay	test system	setting	how to read	measurement	value
CC1(CCCCCCCCCCOCCCOP(=O)(O)CO[C@H](CO)Cn2ccc(N)nc2=O)COC1	human alphaherpesvirus 3	cytopathic effect	HFF, Ellen	–	–	EC50	1.01 ± 0.22 µM
O=C(O)/C=C/c1ccc(NC(=O)C2(NC(=O)c3ccc4c(C5CCCCC5)c5n(c4c3)CC(=O)Nc3ccccc3-5)CCCC2)cc1	hepatitis C virus	replicon replication	Huh-7, genotype 1b Con1	–	–	EC50	0.008 µM
C=C(C)[C@@H]1CC[C@]2(C(=O)NC(CO)Cc3ccccc3)CC[C@]3(C)[C@H](CC[C@@H]4[C@@]5(C)CCCNC(C)(C)[C@@H]5CC[C@]43C)[C@@H]12 (stereo partly shown)	human papillomavirus 11	viral replication, inhibitor, luciferase	C-33-A	–	–	EC50	> 0.24 µM
